Measurements of several laboratories.
Protocols differ between the studies behind these lines. ± marks the error that the study gave.

SMILES	assay	system	setting	scale	measurement	value
CC1=CC(C)=[N+]2C1=C(CO)c1c(C)cc(C)n1[B-]2(C)C	DPBF degradation	isopropyl alcohol	irradiation above 500 nm	relative to: methylene blue	relative singlet oxygen generation	202 ± 5%
CCNCC#CCNc1ccnc2cc(Cl)ccc12	measured: compound as metabolite	human hepatocytes	10 µM DAQ, 30 min	relative to: parent at time zero	relative UV abundance	37.2%
C[C@@H](C(=O)O)c1ccc(-c2ccccc2)c(F)c1	HPLC	solution	concentration not given, 12 h, room temperature		relative change of HPLC peak area	1.3%
[Cl-].[Cl-].[Ru+2].c1ccc(-c2ccccn2)nc1.c1ccc(-c2ccccn2)nc1.c1ccc(-c2ccnc3c2ccc2c(-c4ccccc4)ccnc23)cc1	C18 HPLC retention time	water	100 µM	relative to: standards of known log P	relative log P	1.64
COc1ccc2nc(-c3ccc(N(C)C)cc3)sc2c1		PBS	free dye	relative to: thioflavin T	relative brightness	1.55
C=CC(=O)Nc1cc(Nc2nccc(-c3cn(C4CC4)c4ccccc34)n2)c(OC)cc1N(C)CCNC	bench-top stability	rat plasma	80 ng/mL, 3 h, room temperature	relative to: nominal concentration	relative error	-1%
CCCNC(=O)[C@H]1O[C@@H]1C(=O)N[C@H](C(=O)N1CCC[C@H]1C(=O)OCC1=C2C(C)=CC(C)=[N+]2[B-](C)(C)n2c(C)cc(C)c21)[C@@H](C)CC	DPBF degradation	isopropyl alcohol	irradiation above 500 nm	relative to: methylene blue	relative singlet oxygen generation	153 ± 35%
[Cl-].[Cl-].[Ru+2].c1ccc2nc(-c3ccc4ccccc4n3)ccc2c1.c1ccc2nc(-c3ccc4ccccc4n3)ccc2c1.c1cnc2c(c1)ccc1cccnc12	C18 HPLC retention time	water	100 µM	relative to: standards of known log P	relative log P	1.28
CC(=O)OCC1=C2C(C)=CC(C)=[N+]2[B-](C)(C)n2c(C)cc(C)c21	DPBF degradation	isopropyl alcohol	irradiation above 500 nm	relative to: methylene blue	relative singlet oxygen generation	69 ± 18%
[Cl-].[Cl-].[Ru+2].c1ccc(-c2ccccn2)nc1.c1ccc(-c2ccccn2)nc1.c1ccc(-c2ccccn2)nc1	C18 HPLC retention time	water	100 µM	relative to: standards of known log P	relative log P	1.11

A few entries again:
SMILES	assay	system	setting	scale	measurement	value
[Cl-].[Cl-].[Ru+2].c1ccc(-c2ccccn2)nc1.c1ccc(-c2ccccn2)nc1.c1ccc(-c2ccnc3c2ccc2c(-c4ccccc4)ccnc23)cc1	C18 HPLC retention time	water	100 µM	relative to: standards of known log P	relative log P	1.64
